Measured values collected from several papers.
Parts stem from different laboratories: compare values within a part only.

Block 1
Target: Hepatocyte nuclear factor 3-alpha (Foxa1, Mus musculus, UniProt P35582, residues 1-468, full length assumed)
Sequence of UniProt P35582 (whole entry, looked up): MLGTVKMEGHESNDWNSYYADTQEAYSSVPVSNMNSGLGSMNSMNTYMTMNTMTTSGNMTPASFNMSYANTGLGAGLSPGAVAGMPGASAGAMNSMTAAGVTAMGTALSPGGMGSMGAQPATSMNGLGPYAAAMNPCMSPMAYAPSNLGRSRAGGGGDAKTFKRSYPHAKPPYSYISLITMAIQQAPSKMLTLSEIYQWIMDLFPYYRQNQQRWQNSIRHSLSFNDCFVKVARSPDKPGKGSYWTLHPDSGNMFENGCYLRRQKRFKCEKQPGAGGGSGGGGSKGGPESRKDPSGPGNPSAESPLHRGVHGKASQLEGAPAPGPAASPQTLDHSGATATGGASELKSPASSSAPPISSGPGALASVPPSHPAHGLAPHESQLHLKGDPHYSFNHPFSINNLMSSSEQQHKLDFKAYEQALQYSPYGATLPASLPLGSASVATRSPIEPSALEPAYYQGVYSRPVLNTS
Method: EMSA with sequencing
Molecule type: double-stranded DNA, one strand shown
Sample: in vitro
Concentration: 10 and 20 nM
Setting: whole designed probe, mean of two concentrations, ends assumed
Relative to: negative control set to 0
Direction: higher = stronger binding
Strand	normalised bound fraction [ratio]
GTGAGCGGTGCCCATTGATGGGGAACATCTTCCCCCTCTTCCTTGCCCCACCAGCTCACCTTCCCGGGTTATTTGCAGATAGGAAAATAAATAAAGCCGCTGCTCTCACCTATAGTCTTGGCGCAAACTGCTGTTTGCTCTGGATGAATCATGGTCCTTTGGCGACGCCAGGCTCCGGGAGAGCAAAGCACCGTGTCAGGGCCATGATCCGGGGTGGCCTTTCACTGGGATCGTGGGGAC	0.371
GTGAGCGGTGCCCATTGATGGGGAACAAGACCGGCAGCCTCTGGTTCCTGTTGTTGTTTTTTAAGTGCGCGGAGGCGCAGGCGAAACTCGGAGTTTCCAACTCGTTGCTTATTTTGCAAAGTAAACAAGCAAATGTTATGTGCATAACCTTCGCTGTCTCGCTAAAGGTCAGCGCGCCCCTGCTCATTTCCCGGGCTGCCTTTTGGGGGCACTCTGATGTTTCACTGGGATCGTGGGGAC	0.46
GTGAGCGGTGCCCATTGATGGGGAACGTCCCTGGGCCTGGCTTGGGACAGACAGAGGCGTCATCTTGTTCTCATATGCGGGAAGGCTATGAAAAGAAAACCGCGTGTTGGTCCAAAATGTAATCTAGAATTACACTAGGATCTTTTGTTCTCACTCTGACATGGTCAGAATTAATTTGGAGGTCCAAAAAGAGGGCGTTTTGTTTTTTAATCTGAATTATTTCACTGGGATCGTGGGGAC	-0.0684
GTGAGCGGTGCCCATTGATGGGGAACTTTTTGTTTTCACAATCCCAGTTGTTCTGCTACTAACCCAATACATCTATTTACAAAAGAAGTTACATGAGTCTCTTTTTTCTCCATTTTTTTGTTTACATAGGCAAATTTCCTTACAATGTAAACTGTAATAATAGTTGAAACATGTGGTTTTATCAATTCTGTTTTACAGCAGCCTGAGAAGAGTGAAGAATTTCACTGGGATCGTGGGGAC	0.534

Block 2
Target: Ras GTPase-activating protein-binding protein 1, full length (G3BP1, Homo sapiens, UniProt Q13283)
Sequence of UniProt Q13283 (whole entry, looked up): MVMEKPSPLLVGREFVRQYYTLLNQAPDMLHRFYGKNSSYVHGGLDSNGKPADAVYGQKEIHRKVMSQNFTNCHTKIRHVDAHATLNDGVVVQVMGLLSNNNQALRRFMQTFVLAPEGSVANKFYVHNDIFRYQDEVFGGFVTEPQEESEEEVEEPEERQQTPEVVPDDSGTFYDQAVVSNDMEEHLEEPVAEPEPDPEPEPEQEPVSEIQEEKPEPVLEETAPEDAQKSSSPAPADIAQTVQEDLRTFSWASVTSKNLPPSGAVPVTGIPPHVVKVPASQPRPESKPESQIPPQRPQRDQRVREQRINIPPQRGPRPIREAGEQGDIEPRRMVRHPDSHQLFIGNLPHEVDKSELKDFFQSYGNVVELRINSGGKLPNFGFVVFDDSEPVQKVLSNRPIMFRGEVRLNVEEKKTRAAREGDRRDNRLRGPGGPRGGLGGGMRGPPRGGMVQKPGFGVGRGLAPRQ
Method: RNA Bind-n-Seq
Molecule type: RNA
Sample: in vitro
Concentration: 200 nM
Setting: whole 134-nt RNA, ends assumed
Added: 150 mM LiCl
Relative to: input library
Direction: higher = stronger binding
All molecules: 7-deaza-guanosine replaces G
Constant ends, left off below: GGGAGUUCUACAGUCCGACGAUC … UGGAAUUCUCGGGUGUCAAGG
Strand	log2 enrichment
UGGGCCUGGUGGCAUGCGGGGAGGAAGAGGUGGCCUCAUGGAUCGUGGUGGUCCCGGUGGAAUGUUCAGAGGUGGCCGUGGUGGAGACAG	0.24
CUCAAGUCCUGUGCUACACAUCGUAUGUACCGAAUCGGGGCCGGGCCGGGCCGGAAAGUAUUAUGUUACGCCGUUCGGAUCUGCACUUCC	0.7
UGGGAGGUGGAUUUUGUUUAUUUUUUUAGCUCAUUUCCAGGGGUGGGAAUUUUUUUUUAAUAUUUGUCAUGAAUAAAGUUGUUUUUGAAA	-0.27
UGGGAGGUGGAUUUUGUUUAUUUUUUUAGCUCAUUUCCAGGGGUGGGAAUUUUUUUUUAAUAUGAGUCAUGAAUAAAGUUGUUUUUGAAA	0.171
AAGUCCUGUGCUACACAUCGUAUGUACCGAAUCGGGGAAAGGGGUGGGGAAAGGGGAAAGUAUUAUGUUACGCCGUUCGGAUCUGCACUU	0.033
CACAGACAACACGCACCCACACAGACACAGAGGGAAGGGGUUGGGAUGGGGACAGGGUGCACAGCAGGGCAGGGUAGGACCCCAGCCCCU	0.363
CCUGUGCUACACAUCGUAUGUACCGAAUCGGGCCCCCCGGGCCCCCCGGGGCCCCCCGGGGAAAGUAUUAUGUUACGCCGUUCGGAUCUG	-1.32
UCCUCAAGUCCUGUGCUACACAUCGUAUGUACCGAAUCGGAAGGAAGGAAGGAAAGUAUUAUGUUACGCCGUUCGGAUCUGCACUUCCAG	0.209
AAGUCCUGUGCUACACAUCGUAUGUACCGAAUCGGUUUUGGGGUUUUGGUUUUGGGGAAAGUAUUAUGUUACGCCGUUCGGAUCUGCACU	0.0941
CCUGUGCUACACAUCGUAUGUACCGAAUCGGUUUUUUUGGGUUUUUUUGGUUUUUUUGGGAAAGUAUUAUGUUACGCCGUUCGGAUCUGC	0.413
GUCCUGUGCUACACAUCGUAUGUACCGAAUCGGAAAAAAGGAAAAAAGGGGAAAAAAGGAAAGUAUUAUGUUACGCCGUUCGGAUCUGCA	-0.498

Block 3
Substance: PhoQ, residues 284 288 289 292 302 303 SLGVVW
Method: Sort-seq
Refers to: YFP reporter
Sample: E. coli
Setting: PhoQ-PhoP variant library
Added: 10 µM Mg2+
Relative to: high Mg2+ state
Direction: higher = stronger signaling
target	fold induction
PhoP, residues 12 14 15 18 19 NFFVT (Escherichia coli, UniProt P23836)	10.9
PhoP, residues 12 14 15 18 19 TPWTL (Escherichia coli, UniProt P23836)	23.1
PhoP, residues 12 14 15 18 19 VGHWL (Escherichia coli, UniProt P23836)	0.646

Block 4
Target: Prothrombin, mature alpha-thrombin (F2, Homo sapiens, UniProt P00734)
Method: aptamer microarray, sandwich
Molecule type: DNA with 2'F-ANA
Sample: in vitro
Concentration: 200 nM
Setting: whole 15-mer aptamer, many near background
Added: Cy3 exosite-II aptamer, 400 nM
Direction: higher = stronger binding
Strand: GGTTGGTGTGGTTGG
Modification	mean fluorescence intensity [a.u.]
2'F-ANA at 4 5 6 8 9 10 12 13	47.6
2'F-ANA at 2 4 5 6 7 8 9 11 13 15	103
2'F-ANA at 2 3 4 8 10 11 14	169
2'F-ANA at 4 5 10	46.7
2'F-ANA at 3 5 9 11 15	98.6
2'F-ANA at 1 5 6 7 8 9 10 14	68.5
2'F-ANA at 1 2 3 5 12 13	88.7
2'F-ANA at 3 5 6 7 9 10 11	86.9
2'F-ANA at 3 4 5 6 7 8 9 11 13 15	62.6
2'F-ANA at 2 3 8 11 12 13 15	835
2'F-ANA at 3 4 6 7 9 10 12 13	226
2'F-ANA at 3 4 7 8 11	768
2'F-ANA at 2 4 5 6 7 8 12 13 15	272
2'F-ANA at 6 7 8 12 13 14	220
2'F-ANA at 1 2 3 5 6 7 9 12 13	76.1
2'F-ANA at 1 3 4 8 11 12 14 15	97.2

Repeated from above (block 2):
Strand	log2 enrichment
UCCUCAAGUCCUGUGCUACACAUCGUAUGUACCGAAUCGGAAGGAAGGAAGGAAAGUAUUAUGUUACGCCGUUCGGAUCUGCACUUCCAG	0.209
CUCAAGUCCUGUGCUACACAUCGUAUGUACCGAAUCGGGGCCGGGCCGGGCCGGAAAGUAUUAUGUUACGCCGUUCGGAUCUGCACUUCC	0.7
